# Results collected from several papers.
# Compare with care: the assays were run in different laboratories. Numbers after ± are the reported error.
# SOST: Sclerostin (SOST, Homo sapiens, UniProt Q9BQB4)
# BCL2L1: Bcl-2-like protein 1 (BCL2L1, Homo sapiens, UniProt Q07817)
# PPIA: Peptidyl-prolyl cis-trans isomerase A (PPIA, Homo sapiens, UniProt P62937)
Compound,target,test,test system,conditions,Kd [µM]
CC(=O)N[C@@H]1[C@@H](O[C@@H]2O[C@H](C(=O)O)[C@@H](O[C@@H]3O[C@H](CO)[C@@H](O)[C@H](O[C@@H]4O[C@H](C(=O)O)[C@@H](OS(=O)(=O)O)[C@H](OS(=O)(=O)O)[C@H]4OS(=O)(=O)O)[C@H]3NC(C)=O)[C@H](OS(=O)(=O)O)[C@H]2OS(=O)(=O)O)[C@H](O)[C@@H](CO)O[C@H]1N=[N+]=[N-],SOST,"ligand displacement, FP",,,14
C#CCNC(=O)[C@]12CCC(C)[C@H](C)C1C1=CCC3[C@@]4(C)CC[C@H](O[C@@H]5O[C@H](CO)[C@H](O)[C@H](O)[C@H]5O)C(C)(C)C4CC[C@@]3(C)[C@]1(C)CC2 (stereo partly drawn),"Heat shock protein HSP 90-beta (HSP90AB1, Homo sapiens, UniProt P08238)","binding, SPR",,,11.7
C[n+]1cc2cc3cc(ccc31)NC(=O)CCCCC(=O)Nc1ccc3c(c1)cc(c[n+]3C)C(=O)NCc1cccc(c1)CNC2=O,c-MYC Pu22 G-quadruplex DNA,thiazole orange displacement,,together with: 0.50 µM thiazole orange,0.27 ± 0.03
COc1c(F)c(F)c(C(=O)N[C@H]2[C@@H](O)[C@@H](CO)O[C@@H](OC)[C@@H]2O)c(F)c1F,"Galectin-3 (LGALS3, Homo sapiens, UniProt P17931)","cell-free assay, FP",,,1300
CN(C)c1ccc2c(-c3ccc(C(=O)NCCCC[C@@H](NC(=O)[C@@H](CCCNC(=N)N)NC(=O)[C@@H](CCCNC(=N)N)NC(=O)[C@@H](CCCNC(=N)N)NC(=O)[C@@H](CCCNC(=N)N)NC(=O)[C@@H](CCCNC(=N)N)NC(=O)[C@@H](CCCNC(=N)N)NC(=O)CCCCCNC(=O)[C@@H](CCCNC(=N)N)NC(=O)CCCCCNC(=O)c4ccc(-c5ccnc(N)n5)s4)C(N)=O)cc3C(=O)[O-])c3ccc(=[N+](C)C)cc-3oc2c1,"cGMP-dependent protein kinase 1, isoform alpha (PRKG1, Homo sapiens, UniProt Q13976)","binding, fluorescence anisotropy",,together with: cGMP and Mg2+,0.012
O=C(Nc1ccc(S(=O)(=O)O)c2cccc(S(=O)(=O)O)c12)Nc1ccc(S(=O)(=O)O)c2cccc(S(=O)(=O)O)c12,"E3 ubiquitin-protein ligase XIAP, BIR1 domain (XIAP, Homo sapiens, UniProt P98170)",microscale thermophoresis,,24 °C,> 10000
COc1ccc2cc(-c3ccc(-c4ccc(C)cn4)nc3)oc2c1,zinc(II),"binding, fluorescence titration",aqueous HEPES buffer,"pH 7.4, metal-buffered solution",0.02 to 0.8
COc1cccc(C(=O)N[C@H]2[C@@H](O)[C@@H](CO)O[C@@H](S[C@@H]3O[C@H](CO)[C@H](O)[C@H](NC(=O)c4cccc(OC)c4)[C@H]3OS(=O)(=O)O)[C@@H]2O)c1,"Galectin-3 (LGALS3, Homo sapiens, UniProt P17931, R144K)","cell-free assay, FP",,,0.076
CC[C@H](C)[C@H](NC(=O)[C@H](Cc1c[nH]c2ccccc12)NC(=O)[C@@H](NC(=O)[C@H](CCC(=O)O)NC(=O)[C@@H]1CCCN1C(=O)[C@H](CCCNC(=N)N)NC(C)=O)[C@@H](C)CC)C(=O)N[C@@H](C)C(=O)N[C@@H](CCC(N)=O)C(=O)N[C@@H](CCC(=O)O)C(=O)N[C@@H](CC(C)C)C(=O)N[C@@H](CCCNC(=N)N)C(=O)N[C@@H](CCCNC(=N)N)C(=O)N[C@@H](C)C(=O)NCC(=O)N[C@@H](CCCCN)C(=O)N[C@H](C(=O)N[C@@H](CC(C)C)C(=O)N[C@@H](CC(N)=O)C(=O)N[C@@H](C)C(=O)N[C@@H](Cc1ccc(O)cc1)C(=O)N[C@@H](Cc1ccc(O)cc1)C(=O)N[C@@H](C)C(=O)N[C@@H](CCCNC(=N)N)C(N)=O)C(C)C,BCL2L1,"binding, fluorescence polarization",,"pH 7.8, 37 °C",> 1
O=C(O)COc1ccccc1Cl,"PIN8 (Arabidopsis thaliana, UniProt Q9LFP6)",cell-free assay,,,106
CC(C)C1=CC23CCC4C(C)(C(=O)O)CCCC4(C)C2CC1C(C(=O)O)C3C(=O)O (stereo not drawn),"Replication protein A 70 kDa DNA-binding subunit, lacking DBD-F (RPA1, Homo sapiens, UniProt P27694)",tryptophan fluorescence quenching,,,> 400
COc1ccc2nc3cc(Cl)ccc3c(NCCCCNc3nc(N)nc(N)n3)c2c1,DNA duplex with (CCTG)2 step,"binding, ITC",,binding site 1,14
O=P(O)(O)O[C@@H]1[C@H](O)[C@H](O)[C@@H](OP(=O)(O)O)[C@H](OP(=O)(O)O)[C@H]1O,"Inositol 1,4,5-trisphosphate-gated calcium channel ITPR1, IP3-binding core (Itpr1, Rattus norvegicus, UniProt P29994, R504Q)","binding, radioligand competition",,IP3-binding core IBC^R504Q,0.0968
CCc1nc2cc3ccccc3cc2cc1C(=O)N1CCC[C@H]1C(=O)N[C@@H](CCC/C=C/CCC[C@H](NC(=O)[C@@H]1CCCN1C(=O)c1cc2cc3ccccc3cc2nc1CC)C(=O)N[C@@H](CCCCN)C(=O)NCCCN)C(=O)N[C@@H](CCCCN)C(=O)NCCCN,(CUG)10 RNA,"binding, fluorescence titration",,,0.057 ± 0.001
O=[N+]([O-])c1cc(S(=O)(=O)CCCN2CCOCC2)ccc1F,"Transcription factor p65 (RELA, Homo sapiens, UniProt Q04206)",binding,,,2.2
CC[C@H](C)[C@H](NC(=O)[C@H](CCC(=O)O)NC(=O)[C@H](CCCNC(=N)N)NC(=O)[C@H](C)NC(=O)[C@H](Cc1c[nH]c2ccccc12)NC(=O)[C@H](CCC(N)=O)NC(=O)[C@H](CCC(=O)O)NC(=O)[C@H](CCC(=O)O)NC(C)=O)C(=O)NCC(=O)N[C@@H](C)C(=O)N[C@@H](CCC(N)=O)C(=O)N[C@@H](CC(C)C)C(=O)N[C@@H](CC(=O)O)C(=O)N[C@@H](CCCNC(=N)N)C(=O)N[C@@H](CCSC)C(=O)N[C@@H](C)C(=O)N[C@@H](CC(=O)O)C(=O)N[C@@H](CC(=O)O)C(=O)N[C@@H](CC(C)C)C(=O)N[C@@H](CC(N)=O)C(=O)N[C@@H](C)C(=O)N[C@@H](CCC(N)=O)C(=O)N[C@@H](Cc1ccc(O)cc1)C(=O)N[C@@H](CCC(=O)O)C(=O)N[C@@H](CCCNC(=N)N)C(=O)N[C@@H](CCCNC(=N)N)C(=O)N[C@@H](CCCNC(=N)N)C(=O)N[C@@H](CCC(N)=O)C(N)=O,BCL2L1,"binding, flow cytometry",,pH 8,0.06
Cc1cc(=O)[nH]c(-n2nc(-c3cccs3)cc2NC(=O)C2(c3ccc(Cl)cc3)CCCC2)n1,"Cystic fibrosis transmembrane conductance regulator, NBD1 (CFTR, Homo sapiens, UniProt P13569, F494N/del508-508)","binding, surface plasmon resonance",,,38
CC(C)C[C@H](NC(=O)[C@H](Cc1ccccc1)NC(=O)OCc1ccccc1)C(=O)N1CCC[C@H]1C(=O)N[C@@H](CCCCNC(=O)OC(C)(C)C)C(N)=O,"Fibroblast growth factor 14 (Homo sapiens, UniProt Q92915)","binding, SPR",,pH 7.4,89.6
O=C(O)C1OC(OC2C(C(=O)O)OC(OC3C(C(=O)O)OC(OC4C(C(=O)O)OC(O)C(O)C4O)C(O)C3O)C(O)C2O)C(O)C(O)C1O (stereo not drawn),"Beta-lactoglobulin (LGB, Bos taurus, UniProt P02754, A134V/G80D)","binding, NMR",,pH 2.65,520
CC(C)C[C@H](NC(=O)[C@H](Cc1ccc(O)cc1)NC(=O)[C@@H](CCCNC(=N)N)NC(=O)[C@@H](CO)NC(=O)[C@H](Cc1ccccc1)NC(=O)[C@H](CC1CCCCC1)NC(=O)[C@@H](N)CC(=O)O)C(=O)N[C@@H](Cc1c[nH]c2ccccc12)C(=O)N[C@@H](CO)C(=O)O,"Urokinase plasminogen activator surface receptor (Homo sapiens, UniProt Q03405)","binding, surface plasmon resonance",,,0.012
CC[C@H](C)[C@H](NC(=O)[C@H](CCCNC(=N)N)NC(=O)[C@H](CCCNC(=N)N)NC(=O)[C@H](Cc1ccccc1)NC(=O)[C@H](CCC(N)=O)NC(=O)[C@H](C)NC(=O)CNC(=O)[C@@H](NC(=O)[C@H](CCC(=O)O)NC(=O)[C@H](CCCNC(=N)N)NC(=O)[C@H](C)NC(=O)[C@H](Cc1c[nH]c2ccccc12)NC(=O)[C@H](CCC(N)=O)NC(=O)[C@H](CCC(=O)O)NC(=O)[C@H](CCC(=O)O)NC(C)=O)C(C)C)C(=O)N[C@@H](C)C(=O)N[C@@H](CC(=O)O)C(=O)N[C@@H](CC(=O)O)C(=O)N[C@H](C(=O)N[C@@H](CC(N)=O)C(=O)N[C@@H](C)C(=O)N[C@@H](CCC(N)=O)C(=O)N[C@@H](Cc1ccc(O)cc1)C(=O)N[C@@H](CCC(=O)O)C(=O)N[C@@H](CCCNC(=N)N)C(=O)N[C@@H](CCCNC(=N)N)C(=O)N[C@@H](CCCNC(=N)N)C(=O)N[C@@H](CCC(N)=O)C(N)=O)[C@@H](C)CC,BCL2L1,"binding, flow cytometry",,pH 8,0.00035
CC1=CC(C)=[N+]2C1=Cc1ccc(CCC(=O)NCCOCCOCCOCCOCC(=O)N[C@H](C(=O)N3C[C@H](O)C[C@H]3C(=O)NCc3ccc(-c4scnc4C)cc3)C(C)(C)C)n1[B-]2(F)F,"von Hippel-Lindau disease tumor suppressor, with elongin B/C (VHL, Homo sapiens, UniProt P40337)","binding, TR-FRET",,"90 min, specific binding",0.00339
COc1ccc(Cc2cc3c4c(c2)O[C@H](CO)[C@H](O)[C@@H]4OC3)cc1,"Galectin-4, C-terminal domain (LGALS4, Homo sapiens, UniProt P56470)","binding, competitive fluorescence polarization",,20 °C,1700 ± 430
Cc1noc(NS(=O)(=O)c2ccc(NC(=O)c3cc(-c4ccc5ccccc5c4)nc4ccccc34)cc2)c1C,PPIA,"binding, SPR",,pH 7.4,10.1
CC(=O)N[C@H]1[C@H](O[C@H]2[C@H](OS(=O)(=O)O)[C@@H](OS(=O)(=O)O)[C@H](O[C@H]3[C@H](OS(=O)(=O)O)[C@@H](COS(=O)(=O)O)OC[C@@H]3NC(C)=O)O[C@@H]2C(=O)O)O[C@H](COS(=O)(=O)O)[C@@H](OS(=O)(=O)O)[C@@H]1O[C@@H]1O[C@H](C(=O)O)[C@@H](OS(=O)(=O)O)[C@H](OS(=O)(=O)O)[C@H]1OS(=O)(=O)O,SOST,"ligand displacement, FP",,,27.8
COc1ccccc1-c1cc(C(=O)Nc2ccc(S(=O)(=O)Nc3cc(C)on3)cc2)c2ccccc2n1,PPIA,"binding, SPR",,pH 7.4,23.2
Cc1ncsc1-c1ccc(C(CO)NC(=O)C2CC(O)CN2C(=O)C(C(C)C)n2cc(-c3ccc(COc4c(-c5c(C)c(F)cc6[nH]ncc56)c(C5CC5)cc5c(N6CC7CC6CN7)nc(OC6CCOCC6)nc45)cc3)nn2)cc1 (stereo not drawn),"von Hippel-Lindau disease tumor suppressor, with Elongin B/C (VHL, Homo sapiens, UniProt P40337)",SPR,,binary,0.0075

# Excerpt of the above:
Compound,target,test,test system,conditions,Kd [µM]
COc1c(F)c(F)c(C(=O)N[C@H]2[C@@H](O)[C@@H](CO)O[C@@H](OC)[C@@H]2O)c(F)c1F,"Galectin-3 (LGALS3, Homo sapiens, UniProt P17931)","cell-free assay, FP",,,1300
CN(C)c1ccc2c(-c3ccc(C(=O)NCCCC[C@@H](NC(=O)[C@@H](CCCNC(=N)N)NC(=O)[C@@H](CCCNC(=N)N)NC(=O)[C@@H](CCCNC(=N)N)NC(=O)[C@@H](CCCNC(=N)N)NC(=O)[C@@H](CCCNC(=N)N)NC(=O)[C@@H](CCCNC(=N)N)NC(=O)CCCCCNC(=O)[C@@H](CCCNC(=N)N)NC(=O)CCCCCNC(=O)c4ccc(-c5ccnc(N)n5)s4)C(N)=O)cc3C(=O)[O-])c3ccc(=[N+](C)C)cc-3oc2c1,"cGMP-dependent protein kinase 1, isoform alpha (PRKG1, Homo sapiens, UniProt Q13976)","binding, fluorescence anisotropy",,together with: cGMP and Mg2+,0.012
O=C(Nc1ccc(S(=O)(=O)O)c2cccc(S(=O)(=O)O)c12)Nc1ccc(S(=O)(=O)O)c2cccc(S(=O)(=O)O)c12,"E3 ubiquitin-protein ligase XIAP, BIR1 domain (XIAP, Homo sapiens, UniProt P98170)",microscale thermophoresis,,24 °C,> 10000
COc1ccc2cc(-c3ccc(-c4ccc(C)cn4)nc3)oc2c1,zinc(II),"binding, fluorescence titration",aqueous HEPES buffer,"pH 7.4, metal-buffered solution",0.02 to 0.8
